Measured values of several laboratories.
Each line is one published result; not all experiments were run side by side. Several values in a cell are separate wells, animals, samples, runs or records. Numbers after ± are the reported error.
OPRK1: Kappa-type opioid receptor (OPRK1, Homo sapiens, UniProt P41145)
Oprm1: Mu-type opioid receptor (Oprm1, Rattus norvegicus, UniProt P33535)
Oprk1: Kappa-type opioid receptor (Oprk1, Mus musculus, UniProt P33534)
Neuronal acetylcholine receptor; alpha3/beta2: Neuronal acetylcholine receptor; alpha3/beta2 (Rattus norvegicus, UniProt P04757+P12390)
BCHE: Cholinesterase (BCHE, Homo sapiens, UniProt P06276)
OPRL1: Nociceptin receptor (OPRL1, Homo sapiens, UniProt P41146)
ACHE: Acetylcholinesterase (ACHE, Homo sapiens, UniProt P22303)
inhA: Enoyl-[acyl-carrier-protein] reductase [NADH] (inhA, Mycobacterium tuberculosis, UniProt P9WGR1)

Protein sequences, listed by entry. Tags and fused reporters are not part of them. Residues count along the entry.
UniProt P41145, whole entry: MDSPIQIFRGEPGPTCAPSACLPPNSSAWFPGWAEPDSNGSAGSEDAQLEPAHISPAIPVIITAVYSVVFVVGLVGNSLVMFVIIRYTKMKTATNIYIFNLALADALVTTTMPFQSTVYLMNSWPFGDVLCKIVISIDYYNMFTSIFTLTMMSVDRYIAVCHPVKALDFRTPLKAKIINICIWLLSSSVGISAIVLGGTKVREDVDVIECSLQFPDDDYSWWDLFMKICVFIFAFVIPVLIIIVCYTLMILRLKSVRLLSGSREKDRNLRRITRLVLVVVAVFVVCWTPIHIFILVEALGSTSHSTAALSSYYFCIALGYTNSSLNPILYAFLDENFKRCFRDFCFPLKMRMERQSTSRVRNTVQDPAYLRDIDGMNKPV
UniProt P33535, whole entry: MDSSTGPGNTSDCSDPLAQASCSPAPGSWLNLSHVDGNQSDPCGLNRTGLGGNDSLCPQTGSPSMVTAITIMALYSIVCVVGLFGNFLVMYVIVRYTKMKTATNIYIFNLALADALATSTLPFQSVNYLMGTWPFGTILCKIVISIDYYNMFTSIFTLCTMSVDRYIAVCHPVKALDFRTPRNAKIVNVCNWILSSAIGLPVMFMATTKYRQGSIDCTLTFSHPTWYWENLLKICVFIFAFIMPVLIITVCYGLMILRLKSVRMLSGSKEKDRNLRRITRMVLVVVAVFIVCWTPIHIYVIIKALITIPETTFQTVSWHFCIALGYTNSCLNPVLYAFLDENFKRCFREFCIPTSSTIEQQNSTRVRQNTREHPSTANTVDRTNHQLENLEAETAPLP
UniProt P04757, 26-499 limits assumed: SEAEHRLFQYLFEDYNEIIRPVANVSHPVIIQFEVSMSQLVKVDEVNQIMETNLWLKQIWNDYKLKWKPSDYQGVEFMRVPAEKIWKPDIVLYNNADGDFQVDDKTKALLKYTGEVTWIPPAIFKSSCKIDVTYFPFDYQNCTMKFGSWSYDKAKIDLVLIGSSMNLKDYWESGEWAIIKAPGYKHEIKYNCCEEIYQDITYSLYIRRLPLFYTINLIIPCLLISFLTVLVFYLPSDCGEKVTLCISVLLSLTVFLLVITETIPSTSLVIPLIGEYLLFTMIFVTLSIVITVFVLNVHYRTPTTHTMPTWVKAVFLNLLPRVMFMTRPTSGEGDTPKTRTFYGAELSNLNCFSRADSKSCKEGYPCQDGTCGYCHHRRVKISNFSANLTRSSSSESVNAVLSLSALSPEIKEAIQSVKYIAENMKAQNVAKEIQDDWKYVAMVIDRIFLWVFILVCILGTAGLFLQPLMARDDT
UniProt P12390, 25-500 limits assumed: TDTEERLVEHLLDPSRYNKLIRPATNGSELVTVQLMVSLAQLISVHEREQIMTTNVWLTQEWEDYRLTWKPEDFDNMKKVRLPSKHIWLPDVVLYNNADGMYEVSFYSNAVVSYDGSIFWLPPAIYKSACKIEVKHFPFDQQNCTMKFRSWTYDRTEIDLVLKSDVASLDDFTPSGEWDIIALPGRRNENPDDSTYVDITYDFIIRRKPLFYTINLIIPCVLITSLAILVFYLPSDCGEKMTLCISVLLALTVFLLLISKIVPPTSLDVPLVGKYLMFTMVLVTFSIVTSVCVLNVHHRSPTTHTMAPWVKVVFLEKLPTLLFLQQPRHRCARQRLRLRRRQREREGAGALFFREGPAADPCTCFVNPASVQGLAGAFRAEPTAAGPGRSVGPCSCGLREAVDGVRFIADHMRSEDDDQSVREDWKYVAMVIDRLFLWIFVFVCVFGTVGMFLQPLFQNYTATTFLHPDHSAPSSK
UniProt P06276, 29-602 limits assumed: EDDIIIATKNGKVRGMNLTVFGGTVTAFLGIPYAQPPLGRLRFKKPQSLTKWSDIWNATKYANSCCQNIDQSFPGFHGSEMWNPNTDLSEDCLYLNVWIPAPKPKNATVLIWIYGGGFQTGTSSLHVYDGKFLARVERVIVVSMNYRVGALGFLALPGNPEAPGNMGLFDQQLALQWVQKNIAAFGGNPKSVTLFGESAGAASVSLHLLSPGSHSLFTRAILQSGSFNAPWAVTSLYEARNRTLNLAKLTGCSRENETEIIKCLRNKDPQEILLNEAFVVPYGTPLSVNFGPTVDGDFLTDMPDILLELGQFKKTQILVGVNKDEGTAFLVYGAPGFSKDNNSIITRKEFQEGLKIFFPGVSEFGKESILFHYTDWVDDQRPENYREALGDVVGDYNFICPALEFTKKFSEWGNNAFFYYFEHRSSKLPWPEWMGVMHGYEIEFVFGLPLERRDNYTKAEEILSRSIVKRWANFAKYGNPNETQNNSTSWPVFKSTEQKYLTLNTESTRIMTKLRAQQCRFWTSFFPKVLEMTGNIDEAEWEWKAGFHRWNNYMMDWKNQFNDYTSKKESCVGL
UniProt P22303, whole entry, looked up: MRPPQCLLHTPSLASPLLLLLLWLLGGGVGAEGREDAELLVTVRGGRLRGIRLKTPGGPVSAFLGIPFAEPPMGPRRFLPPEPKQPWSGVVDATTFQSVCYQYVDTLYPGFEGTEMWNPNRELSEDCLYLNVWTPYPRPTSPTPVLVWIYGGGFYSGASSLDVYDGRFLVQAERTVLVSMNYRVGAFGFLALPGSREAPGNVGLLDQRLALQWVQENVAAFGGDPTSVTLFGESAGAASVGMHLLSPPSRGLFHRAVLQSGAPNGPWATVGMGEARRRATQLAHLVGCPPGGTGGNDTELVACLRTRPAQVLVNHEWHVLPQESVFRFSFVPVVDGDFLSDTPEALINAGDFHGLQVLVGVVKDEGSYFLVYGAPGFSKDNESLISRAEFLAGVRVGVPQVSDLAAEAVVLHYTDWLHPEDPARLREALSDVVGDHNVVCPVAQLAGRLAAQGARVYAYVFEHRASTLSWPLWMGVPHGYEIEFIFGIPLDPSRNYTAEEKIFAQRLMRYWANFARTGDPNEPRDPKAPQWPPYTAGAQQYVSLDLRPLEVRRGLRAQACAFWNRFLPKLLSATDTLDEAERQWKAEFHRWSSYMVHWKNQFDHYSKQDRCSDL
UniProt P22303, 32-614 limits assumed: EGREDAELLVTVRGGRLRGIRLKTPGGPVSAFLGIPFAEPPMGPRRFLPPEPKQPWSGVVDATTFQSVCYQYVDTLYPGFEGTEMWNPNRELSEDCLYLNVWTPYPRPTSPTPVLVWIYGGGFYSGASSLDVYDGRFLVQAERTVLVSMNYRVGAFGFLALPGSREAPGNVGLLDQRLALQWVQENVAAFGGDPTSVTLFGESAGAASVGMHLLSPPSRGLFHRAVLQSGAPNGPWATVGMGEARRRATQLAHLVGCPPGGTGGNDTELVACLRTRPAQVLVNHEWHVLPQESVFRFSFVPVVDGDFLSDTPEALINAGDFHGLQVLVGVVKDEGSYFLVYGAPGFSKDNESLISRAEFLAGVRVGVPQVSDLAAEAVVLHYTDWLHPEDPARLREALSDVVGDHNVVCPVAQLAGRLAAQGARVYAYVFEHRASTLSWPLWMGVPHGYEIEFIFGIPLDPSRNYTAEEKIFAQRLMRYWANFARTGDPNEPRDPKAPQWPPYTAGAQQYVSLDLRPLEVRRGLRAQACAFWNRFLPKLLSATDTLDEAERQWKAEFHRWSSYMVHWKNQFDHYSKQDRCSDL
UniProt P14416, whole entry: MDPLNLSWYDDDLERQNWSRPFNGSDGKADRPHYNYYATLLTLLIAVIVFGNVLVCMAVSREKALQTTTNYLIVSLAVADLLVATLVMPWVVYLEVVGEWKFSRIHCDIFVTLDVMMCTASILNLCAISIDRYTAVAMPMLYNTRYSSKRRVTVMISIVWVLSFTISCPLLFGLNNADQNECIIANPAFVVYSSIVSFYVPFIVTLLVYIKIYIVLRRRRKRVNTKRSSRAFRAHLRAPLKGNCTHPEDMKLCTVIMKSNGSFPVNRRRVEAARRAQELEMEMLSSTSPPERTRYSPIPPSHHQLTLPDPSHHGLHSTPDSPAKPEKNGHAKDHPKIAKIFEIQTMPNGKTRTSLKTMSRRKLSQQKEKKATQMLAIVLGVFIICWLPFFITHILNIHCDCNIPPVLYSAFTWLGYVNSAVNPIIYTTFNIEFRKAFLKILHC
UniProt A0A0D5YGP3, 1-542: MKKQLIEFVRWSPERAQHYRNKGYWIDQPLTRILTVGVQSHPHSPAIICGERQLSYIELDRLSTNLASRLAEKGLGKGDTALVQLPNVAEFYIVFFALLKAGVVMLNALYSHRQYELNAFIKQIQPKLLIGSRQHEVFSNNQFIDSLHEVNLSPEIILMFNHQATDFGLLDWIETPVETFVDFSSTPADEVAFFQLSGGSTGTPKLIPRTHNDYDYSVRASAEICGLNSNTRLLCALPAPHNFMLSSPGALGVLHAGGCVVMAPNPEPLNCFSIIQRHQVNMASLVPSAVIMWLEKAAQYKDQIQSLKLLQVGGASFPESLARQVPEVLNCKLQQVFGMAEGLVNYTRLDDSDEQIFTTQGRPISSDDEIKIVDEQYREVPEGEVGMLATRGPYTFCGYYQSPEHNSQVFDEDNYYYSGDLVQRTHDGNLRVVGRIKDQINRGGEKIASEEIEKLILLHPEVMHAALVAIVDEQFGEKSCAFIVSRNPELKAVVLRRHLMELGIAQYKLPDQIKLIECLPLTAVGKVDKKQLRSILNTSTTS
UniProt P17405, 47-631 limits assumed: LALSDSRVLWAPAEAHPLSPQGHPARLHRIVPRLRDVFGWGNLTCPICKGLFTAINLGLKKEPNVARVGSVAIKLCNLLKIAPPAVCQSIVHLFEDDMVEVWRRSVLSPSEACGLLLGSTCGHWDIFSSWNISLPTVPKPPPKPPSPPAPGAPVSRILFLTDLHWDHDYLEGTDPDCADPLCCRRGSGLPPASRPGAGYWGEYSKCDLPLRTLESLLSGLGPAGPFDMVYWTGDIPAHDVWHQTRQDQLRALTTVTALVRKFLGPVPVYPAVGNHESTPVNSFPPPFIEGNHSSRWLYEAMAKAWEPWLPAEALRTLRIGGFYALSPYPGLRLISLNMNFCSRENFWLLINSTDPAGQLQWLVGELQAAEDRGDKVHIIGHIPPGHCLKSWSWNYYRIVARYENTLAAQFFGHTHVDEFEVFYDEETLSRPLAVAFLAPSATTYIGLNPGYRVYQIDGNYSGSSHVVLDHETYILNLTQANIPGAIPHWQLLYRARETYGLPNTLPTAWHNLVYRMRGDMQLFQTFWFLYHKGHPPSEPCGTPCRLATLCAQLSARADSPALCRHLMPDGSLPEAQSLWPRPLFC
UniProt P9WKD3, 41-307 limits assumed: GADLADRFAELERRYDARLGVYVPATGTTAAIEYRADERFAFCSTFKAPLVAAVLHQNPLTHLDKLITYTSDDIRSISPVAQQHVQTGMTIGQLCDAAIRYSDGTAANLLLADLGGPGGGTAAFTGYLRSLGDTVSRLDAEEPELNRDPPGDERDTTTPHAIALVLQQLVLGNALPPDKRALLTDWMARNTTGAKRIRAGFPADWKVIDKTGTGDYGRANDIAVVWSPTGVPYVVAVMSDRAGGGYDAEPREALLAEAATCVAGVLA
UniProt P35869, whole entry, looked up: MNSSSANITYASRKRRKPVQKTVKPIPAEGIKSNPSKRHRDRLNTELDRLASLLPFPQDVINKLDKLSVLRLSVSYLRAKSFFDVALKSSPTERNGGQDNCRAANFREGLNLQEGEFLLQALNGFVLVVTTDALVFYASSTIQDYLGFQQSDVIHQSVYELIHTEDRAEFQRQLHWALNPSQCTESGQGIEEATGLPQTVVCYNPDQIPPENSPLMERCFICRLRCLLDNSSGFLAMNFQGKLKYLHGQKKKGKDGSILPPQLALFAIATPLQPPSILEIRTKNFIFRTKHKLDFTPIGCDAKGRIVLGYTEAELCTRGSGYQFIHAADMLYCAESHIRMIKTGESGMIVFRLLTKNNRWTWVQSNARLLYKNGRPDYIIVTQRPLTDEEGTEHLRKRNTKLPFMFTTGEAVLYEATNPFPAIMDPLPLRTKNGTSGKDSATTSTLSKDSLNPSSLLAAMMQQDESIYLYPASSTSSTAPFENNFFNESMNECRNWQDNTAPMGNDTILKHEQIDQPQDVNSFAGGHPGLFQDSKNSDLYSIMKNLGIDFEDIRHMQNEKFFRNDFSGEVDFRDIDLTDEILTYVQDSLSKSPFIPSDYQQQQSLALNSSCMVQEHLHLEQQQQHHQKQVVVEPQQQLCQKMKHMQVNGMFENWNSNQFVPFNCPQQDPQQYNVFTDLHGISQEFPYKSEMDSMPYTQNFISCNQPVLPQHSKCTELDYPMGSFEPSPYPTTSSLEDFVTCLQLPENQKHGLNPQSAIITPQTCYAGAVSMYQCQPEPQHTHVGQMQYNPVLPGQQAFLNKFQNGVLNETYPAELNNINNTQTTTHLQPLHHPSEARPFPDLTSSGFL
UniProt P41143, whole entry: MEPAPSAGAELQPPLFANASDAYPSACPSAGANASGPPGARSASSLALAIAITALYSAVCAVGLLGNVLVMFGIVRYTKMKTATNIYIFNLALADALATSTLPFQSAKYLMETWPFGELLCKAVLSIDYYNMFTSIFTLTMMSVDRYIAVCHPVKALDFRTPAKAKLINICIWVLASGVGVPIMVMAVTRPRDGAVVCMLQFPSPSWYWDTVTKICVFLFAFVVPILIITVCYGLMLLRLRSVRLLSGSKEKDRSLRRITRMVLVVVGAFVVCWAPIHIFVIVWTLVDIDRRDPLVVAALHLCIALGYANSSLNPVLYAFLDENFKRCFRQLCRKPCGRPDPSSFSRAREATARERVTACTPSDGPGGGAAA

U-69593
ERK1/2 phosphorylation (OPRK1; agonist, in-cell western; CHO expressing human KOR; 10 µM; baseline: reference agonist): 100%

CC(C)[C@H]1CC[C@@H](N2CCC(n3c(CO)cc4ccccc43)CC2)CC1
inhibition (CHRM2 (Homo sapiens, UniProt P08172); radioligand binding; 10 µM): 85%

CO[C@]12CC[C@@]3(C[C@@H]1[C@](C)(O)c1cccc(F)c1)[C@H]1Cc4ccc(O)c5c4[C@@]3(CCN1CC1CC1)[C@H]2O5
stimulation (Oprm1; G protein activation, agonist; 10 µM; baseline: DAMGO): 22 ± 2%

C[C@@H]1NC(=O)[C@H](CCCNC(=N)N)NC(=O)[C@H](CCCNC(=N)N)NC(=O)[C@H](Cc2c[nH]cn2)NC(=O)[C@H](CO)NC(=O)[C@@H]2CSSC[C@H](NC(=O)CN)C(=O)N[C@@H](CSSC[C@@H](C(N)=O)NC(=O)[C@H](CO)NC(=O)[C@H](CCCNC(=N)N)NC1=O)C(=O)N[C@@H](CO)C(=O)N[C@@H](Cc1c[nH]cn1)C(=O)N1CCC[C@H]1C(=O)N[C@@H](C)C(=O)N2
remaining response (Neuronal acetylcholine receptor; alpha9/alpha10 (Homo sapiens, UniProt Q9GZZ6+Q9UGM1); ion current, antagonist; Xenopus oocytes; 10 µM, 5 min, added: acetylcholine; baseline: control): 6 ± 6%

ethoxymethyl salvinorin B
Emax (Oprk1; receptor internalization, agonist, on-cell western; mouse receptor; baseline: control): 46.8 ± 3.8%

CCOc1ccc2c(c1)Oc1cc(OCC)ccc1C21OC(=O)c2ccccc21
Km (Cytochrome P450 6P2 (Anopheles gambiae, UniProt Q8T629, V81I); substrate; dual plasmid expression): 1.4 ± 0.02 µM

CC(C)C[C@@H]1NC(=O)[C@H](CCC(=O)O)NC(=O)[C@@H]2CCCN2C(=O)[C@H](Cc2c[nH]cn2)NC(=O)[C@H](CC(=O)O)NC(=O)[C@H](CC(C)C)NC(=O)[C@H](Cc2c[nH]cn2)NC(=O)[C@@H]2CSSC[C@H](NC(=O)CN)C(=O)N[C@@H](CSSC[C@@H](C(N)=O)NC1=O)C(=O)N[C@@H](CO)C(=O)N[C@@H](Cc1c[nH]cn1)C(=O)N1CCC[C@H]1C(=O)N[C@@H](C)C(=O)N2
selectivity ratio (Neuronal acetylcholine receptor; alpha3/beta2; baseline: IC50 α6/α3β2β3 over α3β2): 12

Cc1c(-c2ccc(-c3ccc(OC(F)(F)F)cc3)nc2)[nH]c2ccccc2c1=O
specific activity (cydA, with CydB subunit (Mycobacterium tuberculosis, UniProt L7N662); substrate): 4.5 ± 0.9 µmol/min/mg

CCC(=O)SCC[N+](C)(C)C
substrate inhibition constant (Kss) (BCHE; substrate): 1.5 ± 0.4 mM

nociceptin
time to maximum (OPRL1; receptor internalization; 10 µM): 60 min

CCN(CC)Cc1cc(N)ccc1O
lowest significant inhibitory concentration (ACHE; irreversible inhibitor; free enzyme): > 500 µM

CN(C(=O)Cc1ccc(Cl)c(Cl)c1)[C@H](CN1CCCC1)c1ccccc1
log intrinsic relative activity (Oprk1; receptor internalization, agonist; concentration not given; baseline: dynorphin A): 1.76 ± 0.21

Nc1ccc(O)cc1
inhibition (ACHE; enzyme activity, inhibitor; 1000 µM): 0%

CNC(=O)Oc1ccc2c(c1)[C@]1(C)CCN(C)[C@@H]1N2C
ki (Ace (Anopheles gambiae, UniProt Q869C3); enzyme inhibition, inhibitor): 196000 M⁻¹ s⁻¹

CCCCOP(=O)(OCCCC)OCCCC
threshold activation concentration (PPARG (Homo sapiens, UniProt P37231); reporter gene, agonist): 0.4 µM

O=c1[nH]c(CC2CCCCC2)cc(O)c1-c1ccccc1
binding entropy (inhA; isothermal titration calorimetry; concentration not given, added: NADH): -0.0098 kcal/mol

Cc1ccc2[nH]c(CNCCC[C@H]3CCOC3)cc(=O)c2c1
binding (DRD2 (Homo sapiens, UniProt P14416); 10 µM): inactive

CC(C)C[C@@H]1NC(=O)[C@H](CCC(=O)O)NC(=O)[C@@H]2CCCN2C(=O)[C@H](Cc2c[nH]cn2)NC(=O)[C@H](CCCCCC(=O)O)NC(=O)[C@H](CC(C)C)NC(=O)[C@H](Cc2c[nH]cn2)NC(=O)[C@@H]2CSSC[C@H](NC(=O)CN)C(=O)N[C@@H](CSSC[C@@H](C(N)=O)NC1=O)C(=O)N[C@@H](CO)C(=O)N[C@@H](Cc1c[nH]cn1)C(=O)N1CCC[C@H]1C(=O)N[C@@H](C)C(=O)N2
selectivity ratio (Neuronal acetylcholine receptor; alpha3/beta2; baseline: IC50 α6/α3β2β3 over α3β2): ~39 and 39

O=C(O)c1cccc(O)c1O
Km (2,3-dihydroxybenzoate-AMP ligase BasE (Acinetobacter baumannii, UniProt A0A0D5YGP3); substrate; added: ATP 1 mM): 1.51 ± 0.3 µM

CC(=O)SCC[N+](C)(C)C
substrate inhibition constant (Kss) (BCHE; substrate): 1.7 ± 0.3 mM

methoxymethyl salvinorin B
Emax (OPRK1; agonist; baseline: U-50488 10 µM): 108 ± 3.3%

CCOc1ccc(Cc2nc3cc(C(=O)N(CC)CC)ccc3n2CCC(C)C)cc1
displacement (CNR1 (Homo sapiens, UniProt P21554); binding; CHO membranes; 10 µM, added: [3H]CP-55940): 24%

CN(C(=O)Cc1ccc(Cl)c(Cl)c1)C1CCC2(CCCO2)CC1N1CCCC1 (centres unmarked)
log bias factor (OPRK1; agonist; baseline: G protein over internalization, vs dynorphin A, positive means G protein bias): 0.26 ± 0.21

CCCC(=O)SCC[N+](C)(C)C
substrate inhibition constant (Kss) (BCHE; substrate): 0.7 ± 0.1 mM

O=C(O)c1ccccc1[As](=O)(O)O
maximal inhibition (SMPD1 (Homo sapiens, UniProt P17405); enzyme activity; pH 5.0, added: HMU-PC substrate): 102%

O=C(O)C1=CS[C@@H]2/C(=C\c3cc4n(n3)CSC4)C(=O)N12
KI (blaC (Mycobacterium tuberculosis, UniProt P9WKD3); inactivation): 800 nM

pralidoxime iodide
reactivation rate constant (kr) (Acetylcholinesterase, DFP-inhibited (ACHE, Homo sapiens, UniProt P22303); reactivator; pH 8.0, 25 °C): 0.183 M⁻¹ s⁻¹

CN1[C@@H]2CC[C@H]1C[C@@H](OC(=O)C(CO)c1ccccc1)C2 (some centres unmarked)
Hill coefficient (Muscarinic acetylcholine receptor (Xenopus laevis, UniProt A0A8J0U760); binding, [3H]QNB competition; Xenopus laevis heart homogenate): 0.89

CO[C@]12CC[C@@]3(C[C@@H]1[C@](C)(O)c1ccc(C)s1)[C@H]1Cc4ccc(O)c5c4[C@@]3(CCN1CC1CC1)[C@H]2O5
stimulation (Oprm1; G protein activation, agonist; 10 µM; baseline: DAMGO): 17 ± 3%

N=C(N)NCC(=O)NCC1(Cc2ccccc2)CCN(Cc2ccccc2)CC1
selectivity ratio (Neuropeptide FF receptor 2 (Homo sapiens, UniProt Q9Y5X5); baseline: mu and kappa opioid over NPFF2): 2 fold

CC(C)C[C@@H]1NC(=O)[C@H](CCC(=O)O)NC(=O)[C@@H]2CCCN2C(=O)[C@H](Cc2c[nH]cn2)NC(=O)[C@H](CCCCC(=O)O)NC(=O)[C@H](CC(C)C)NC(=O)[C@H](Cc2c[nH]cn2)NC(=O)[C@@H]2CSSC[C@H](NC(=O)CN)C(=O)N[C@@H](CSSC[C@@H](C(N)=O)NC1=O)C(=O)N[C@@H](CO)C(=O)N[C@@H](Cc1c[nH]cn1)C(=O)N1CCC[C@H]1C(=O)N[C@@H](C)C(=O)N2
selectivity ratio (Chrna7 (Rattus norvegicus, UniProt Q05941); baseline: IC50 α7 over α3β2): 84

CCN(CC)Cc1cccc(N)c1O
inhibition (ACHE; enzyme activity, inhibitor; 1000 µM): 35%

Cc1cccc2c1ccc1cc(C(C)C)ccc12
fold change (AHR (Homo sapiens, UniProt P35869); reporter gene, agonist; Huh7; 30 µM, added: 0.125 mg/mL active microsomes; baseline: MeBIO 0.1 µM): 10.1 and 11.2 and 10.2 and 10.8

CO[C@]12CC[C@@]3(C[C@@H]1[C@](C)(O)c1ccccc1)[C@H]1Cc4ccc(O)c5c4[C@@]3(CCN1CC1CC1)[C@H]2O5
stimulation (Oprm1; G protein activation, agonist; 10 µM; baseline: DAMGO): 6 ± 1%

CN(C(=O)Cc1cccc2occc12)[C@H]1CC[C@@]2(CCCO2)C[C@@H]1N1CCCC1
bias factor (OPRK1; agonist; human receptor; baseline: larger over smaller RAi, vs dynorphin A): 4.2

CO[C@]12CC[C@@]3(C[C@@H]1[C@](C)(O)CC(C)(C)c1ccccc1)[C@H]1Cc4ccc(O)c5c4[C@@]3(CCN1CC1CC1)[C@H]2O5
selectivity ratio (OPRL1; radioligand binding; baseline: Ki MOP over Ki OPRL1): 10 fold

nociceptin
pEC50 (OPRD1 (Homo sapiens, UniProt P41143); calcium mobilization, agonist; CHO with GαqG66Di5): inactive

CO[C@]12CC[C@@]3(C[C@@H]1[C@@](C)(O)c1ccncc1)[C@H]1Cc4ccc(O)c5c4[C@@]3(CCN1CC1CC1)[C@H]2O5
stimulation (OPRK1; G-protein activation, agonist; 10 µM; baseline: U-69593): -17 ± 7%

COc1ccc(CCCCC(=O)C(F)(F)C(F)(F)F)cc1
selectivity ratio (PLA2G6 (Homo sapiens, UniProt O60733); enzyme activity, inhibitor, HPLC-MS/MS lipidomics; baseline: IC50 GIVA cPLA2 over IC50 PLA2G6): ~154

CO[C@]12CC[C@@]3(C[C@@H]1[C@](C)(O)c1ccc(F)cc1)[C@H]1Cc4ccc(O)c5c4[C@@]3(CCN1CC1CC1)[C@H]2O5
stimulation (OPRK1; G-protein activation, agonist; 10 µM; baseline: U-69593): 95 ± 4%

CC1(C)CCC(Cc2cc(O)c(-c3ccccc3)c(=O)[nH]2)CC1
melting temperature (inhA; thermal shift; added: NADH ternary complex): 56.3 °C
